Measured values of several laboratories.
Each numbered part is a random draw from the data of one study; scales do not carry over between parts. Changes are numbered by the printed parent chain.

Block 1 — method: RNA Bind-n-Seq; molecule type: RNA; medium: in vitro; tested at: 365 nM; relative to: no-protein control; direction: higher = stronger binding
Target: RNA binding protein fox-1 homolog 2, RRM domain, GST-SBP tag (RBFOX2, Homo sapiens, UniProt O43251-10, residues 100-194)
Setting: natural RNA segment, single round, ends assumed
Construct (chain): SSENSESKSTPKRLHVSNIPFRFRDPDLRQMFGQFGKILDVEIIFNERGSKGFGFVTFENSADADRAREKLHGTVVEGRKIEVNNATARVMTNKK
Under “RBNS enrichment (R)”, `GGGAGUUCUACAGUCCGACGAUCUAAUCUUGGGAUCGUAUUUUUAUAUCAUAUUCACAUACUUGUUUUUUUAAUUGGUGUUAGAUGACAUGAUUAAUAAAAAAGGCAAGAUAUUUUCAGAAUUUGAAUUUCAGUGGAAUUCUCGGGUGCCAA` is recorded as 0.585.
`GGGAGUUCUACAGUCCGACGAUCUAUAUUACAAGGGCCCCAGUGUUAAUGUCUUAGAUUUUCAGUAUUUGAACUUAUUUUUUUAAAUUCUGUCAUUGAGAUAAGAAUAAUUCAGGUAGCAUCUGAAAUUUUAAUGGAAUUCUCGGGUGCCAA` — result for “RBNS enrichment (R)”: 0.775.
`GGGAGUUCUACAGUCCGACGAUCCUGAGGAAGCUGUGGUAACCAUUUCCCCACUCAUUCUGAGAGCCUUCUGUAAGCACUGACCUGGGUAAGGCAGAGGGUAGGAGUCACCAUCCCUCCUCUGCCAAUAUCGCUGGAAUUCUCGGGUGCCAA`: “RBNS enrichment (R)” 0.283.
For `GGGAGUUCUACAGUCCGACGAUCAGCACAGAUUCCACAUUUUUAUACAUGAGGAUCUUCUUUGUGGUGAAUACCAGGAUUGACUGCAUCCCUUUAAAGAAGUUUUAUGUCCCUGACUCUGGCUAAAAUUAUCUUGGAAUUCUCGGGUGCCAA`, “RBNS enrichment (R)” read 0.688.
`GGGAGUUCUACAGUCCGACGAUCUUGUAAGACAACAUCAAGCCAUGGAAACUUGGCAGAAGAUUCAAAGCAGCUUAAACAGCACUUUUAAUUAACUCCUAAACAUUACAUGGUGGGACUGUGGAGACUCCGUUUGGAAUUCUCGGGUGCCAA` — result for “RBNS enrichment (R)”: 0.221.
`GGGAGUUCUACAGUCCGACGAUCAAAGUAAUAUGUGCCAAUGCUAUUUGUGAAAUGUUUGGUCUUUCUAAACGACUAAAGGAUUUGUUGGGUUUUUGCUUAAGUUUUGAACCAAAUCCUAGAGCCAGCUGAUAUGGAAUUCUCGGGUGCCAA`: “RBNS enrichment (R)” 1.11.
Under “RBNS enrichment (R)”, `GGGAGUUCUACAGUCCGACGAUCGAUUCCCCUCAUCCGAACUGCUGUGUCCAACCUCCAUUGAAGAGCCUUUUCUCCCUCCCUCUCCCUCUGCAAGCCAAGCUGCAUGCACCCAUGCAUGAGUGGUUCUUGCAUGGAAUUCUCGGGUGCCAA` is recorded as 11.1.
`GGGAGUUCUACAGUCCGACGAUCUGACCAAAAGCUGUCAAGUCCUUAAUGUUUAGAAACUCCUUAAAAUGUAUAGUAUUUUAGAACAACAACAACAAAACUCAAUAAACAGUUGAUCUUGUGUGUUUGACAGUUGGAAUUCUCGGGUGCCAA` — result for “RBNS enrichment (R)”: 0.597.

Block 2 — target: inorganic phosphate, free oxyanion; method: microfluidic competitive inhibition; medium: in vitro, cell-free expressed; tested at: not given; direction: lower = stronger binding
Setting: derived from inhibition constants, unchanged parent 615000 nM
Starting sequence: PafA, mature enzyme, eGFP fusion (Elizabethkingia meningoseptica, UniProt Q9KJX5); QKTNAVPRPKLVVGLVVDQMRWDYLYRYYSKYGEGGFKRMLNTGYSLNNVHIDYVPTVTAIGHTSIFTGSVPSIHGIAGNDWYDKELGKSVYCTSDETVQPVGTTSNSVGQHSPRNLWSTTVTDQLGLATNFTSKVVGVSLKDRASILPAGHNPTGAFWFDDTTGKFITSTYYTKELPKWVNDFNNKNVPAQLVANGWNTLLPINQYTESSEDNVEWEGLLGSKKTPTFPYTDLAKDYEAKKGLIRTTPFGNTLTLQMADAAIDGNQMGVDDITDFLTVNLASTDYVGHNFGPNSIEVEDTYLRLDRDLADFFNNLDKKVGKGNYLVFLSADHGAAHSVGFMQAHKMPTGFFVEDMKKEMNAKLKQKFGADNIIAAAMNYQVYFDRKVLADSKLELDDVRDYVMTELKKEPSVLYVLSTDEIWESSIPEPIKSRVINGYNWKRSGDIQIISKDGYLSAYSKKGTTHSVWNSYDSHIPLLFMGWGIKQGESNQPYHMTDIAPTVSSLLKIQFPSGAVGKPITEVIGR
For `D260G`, “phosphate dissociation constant” read 718 µM.
For `S119G`, “phosphate dissociation constant” read 396 µM.
`H495G`: “phosphate dissociation constant” 522 µM.

Single results of other studies
OGT: UDP-N-acetylglucosamine--peptide N-acetylglucosaminyltransferase 110 kDa subunit (OGT, Homo sapiens, UniProt O15294)
Sequence of UniProt O15294 (whole entry, looked up): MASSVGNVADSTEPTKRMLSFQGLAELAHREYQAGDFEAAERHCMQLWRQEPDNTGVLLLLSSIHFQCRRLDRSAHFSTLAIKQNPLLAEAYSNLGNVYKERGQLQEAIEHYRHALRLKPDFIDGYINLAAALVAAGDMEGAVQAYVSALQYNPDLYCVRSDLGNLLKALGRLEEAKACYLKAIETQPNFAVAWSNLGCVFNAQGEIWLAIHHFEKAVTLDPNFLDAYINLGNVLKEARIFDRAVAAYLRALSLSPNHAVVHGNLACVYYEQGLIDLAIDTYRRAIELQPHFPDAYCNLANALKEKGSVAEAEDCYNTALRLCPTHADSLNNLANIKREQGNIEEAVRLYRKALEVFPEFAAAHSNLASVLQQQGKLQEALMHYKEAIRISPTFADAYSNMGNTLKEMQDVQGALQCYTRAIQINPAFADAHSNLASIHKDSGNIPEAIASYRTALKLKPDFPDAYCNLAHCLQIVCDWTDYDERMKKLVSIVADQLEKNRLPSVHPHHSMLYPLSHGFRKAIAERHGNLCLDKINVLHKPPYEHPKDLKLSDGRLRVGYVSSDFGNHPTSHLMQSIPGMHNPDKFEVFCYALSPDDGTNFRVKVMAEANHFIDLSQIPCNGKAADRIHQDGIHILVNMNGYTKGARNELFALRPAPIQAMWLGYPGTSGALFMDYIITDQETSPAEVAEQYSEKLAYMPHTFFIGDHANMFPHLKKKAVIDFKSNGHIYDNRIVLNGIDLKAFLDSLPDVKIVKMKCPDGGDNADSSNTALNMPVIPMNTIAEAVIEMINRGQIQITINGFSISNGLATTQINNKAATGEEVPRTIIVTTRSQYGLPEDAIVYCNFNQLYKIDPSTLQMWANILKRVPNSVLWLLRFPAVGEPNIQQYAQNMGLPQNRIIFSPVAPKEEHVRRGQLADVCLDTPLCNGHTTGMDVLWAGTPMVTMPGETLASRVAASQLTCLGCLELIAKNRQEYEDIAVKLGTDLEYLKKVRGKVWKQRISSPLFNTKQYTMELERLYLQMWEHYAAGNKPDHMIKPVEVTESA
`UBR3 (Homo sapiens, UniProt Q6ZT12)`: cross-linked residues “S1502 to K102” (SERBP1 (Homo sapiens, UniProt Q8NC51); cross-linking MS; cell fractions; added: DSSO).
Under “log2 fold enrichment”, `MRTEHIYPPVYTITY` is recorded as 2.72 (OGT; phage display binding, phage display panning NGS; peptide; relative to: OGT-panned over input library).
`VPS13A (Homo sapiens, UniProt Q96RL7)`: cross-linked residues “T2636 to K320” (CCT7 (Homo sapiens, UniProt Q99832); cross-linking MS; cell fractions; added: DSSO).
For `QWHPTDHHQWRVHDH`, “log2 fold enrichment” read 3.38 (OGT; phage display binding, phage display panning NGS; peptide; relative to: OGT-panned over input library).
Under interaction screen, `SNRPC (Homo sapiens, UniProt P09234)` is recorded as “cross-linked” (SNRPD3 (Homo sapiens, UniProt P62318); cross-linking MS; hits only).
`NAT10 (Homo sapiens, UniProt Q9H0A0)`: cross-linked residues “D244 to K822” (ESF1 (Homo sapiens, UniProt Q9H501); cross-linking MS; cell fractions; added: DMTMM).

For quick reference, copied from above (single results of other studies):
Under interaction screen, `SNRPC (Homo sapiens, UniProt P09234)` is recorded as “cross-linked” (SNRPD3 (Homo sapiens, UniProt P62318); cross-linking MS; hits only).
